Measured values collected from several papers.
± gives the spread as reported. ≈ marks a conversion by molar mass, not a printed value.

Structure (SMILES)	target or system	assay	test system	setting	how to read	endpoint	result
CC[C@H](C)[C@@H]1NC(=O)[C@H](Cc2ccc(O)cc2)NC(=O)[C@@H](N)CSSC[C@@H](C(=O)NCC(=O)N[C@@H](CCCCNC(=O)COCCOCCNC(=O)COCCOCCNC(=O)CC[C@H](NC(=O)CC[C@H](NC(=O)CCCCCCCCCCCCCCCCC(=O)O)C(=O)O)C(=O)O)C(=O)NCC(N)=O)NC(=O)[C@H](CC(N)=O)NC(=O)[C@H](CCC(N)=O)NC1=O	–	–	C57BL/6 mice, diet-induced obese	subcutaneous, 2 µmol/kg daily, 14 days	–	cumulative food intake	29.4 ± 1.6 g
COc1ccc2c(c1)c(CC(=O)OCC(=O)OC(C)(C)C)c(C)n2C(=O)c1ccc(Cl)cc1	–	hot plate test	BALB/c mice	50 mg/kg, 30 min	–	latency of nociceptive response	14.3 ± 1.24 s
C[N+](C)(CI)CCO	–	aggregometry	mouse platelet-rich plasma	20 µM, added: with or without ADP	–	platelet aggregation	no effect
C=C(c1cc(F)c(C(=O)O)c(F)c1)c1cc2c(cc1C)C(C)(C)CCC2(C)C	–	RNA sequencing, item: Cyp26a1 mRNA	rat, brain	dose not given, 24 h, single dose	reference: vehicle	log2 fold change	1
Cc1cc2c(cc1O)C=C1C=CC(=O)C(C)(C)[C@H]1CC2	–	–	C57BL/6J mouse DSS colitis	oral gavage, 50 and 100 mg/kg daily, preventive	–	disease activity index	decreased
COc1ccc(C2CC(c3ccc(C)cc3)=Nc3ccccc3S2)cc1 (stereo not shown)	–	–	Wistar rat, STZ-induced diabetes	oral, 20 mg/kg once daily, day 21	–	body weight	184 ± 4.13 g
C[C@H](NC(=O)CCCCCNC(=S)Nc1ccc2c(c1)C(=O)OC21c2ccc(O)cc2Oc2cc(O)ccc21)C(=O)N[C@@H](C)C(=O)N1CCC[C@H]1C(=O)N[C@@H](CCC(=O)O)C(=O)N1CCC[C@H]1C(=O)N[C@@H](CCC(=O)O)C(=O)N[C@H](C(=O)NCC(=O)N[C@@H](CCC(=O)O)C(=O)O)[C@@H](C)O	–	Western blot	mouse, liver ischaemia-reperfusion, liver	intravenous, 15 mg/kg	–	Ho-1 and Nqo1 protein level	increased
COc1c2c(cc3oc(C)cc(=O)c13)O[C@H](C(C)(C)O[C@@H]1O[C@H](CO)[C@@H](O)[C@H](O)[C@H]1O)C2	–	analgesic effect	Kunming mouse, female	oral, 4 mg/kg, 0 h, 55 °C, before dosing, 30 s cut-off	–	hot plate latency	8.64 ± 1.6 s
CC(=O)[O-].O.O.[O-]c1ccc(Br)cc1C=NCCN1CCOCC1.[Zn+2]	–	DPPH radical scavenging	–	240 µM	–	inhibition	61.1%
N#Cc1[nH]nnc1-c1cccc(Oc2ccccc2)c1	–	–	ZDF rat, male	oral, twice daily, 200 mg/kg/day, one week	–	HbA1c elevation suppression	0.73%
C=C(c1ccc(C(=O)O)c(F)c1)c1cc2c(cc1C)C(C)(C)C=CC2(C)C	–	RNA sequencing, item: Dlx2 mRNA	rat, brain	dose not given, 24 h, single dose	reference: vehicle	log2 fold change	0.48
Cc1cc(O)c(C=O)c2c1C(=O)Oc1c(CO)c(O)c3c(c1O2)C(O)OC3=O (stereo not shown)	–	–	rat male, streptozotocin diabetic	10 mg/kg, 5 weeks	–	body weight	173 ± 5.5 g
CCC1CC2C(C)=CC3C(=O)CCCC3C=CC(C)=CC2C(=O)O1 (stereo not shown)	–	dot blot	5XFAD transgenic mouse, hippocampus	oral, 30 mg/kg/day three times per week, 1 month, not significant	reference: vehicle	soluble oligomeric Aβ reduction	17.3%
CSCCNc1nc(SCCC(F)(F)F)nc2c1ncn2[C@@H]1O[C@H](COP(=O)(O)OP(=O)(O)C(Cl)(Cl)P(=O)(O)O)[C@@H](O)[C@H]1O	–	ADP-induced platelet aggregation, light transmittance aggregometry	human patients, platelet-rich plasma	dose not given, 30 min, aggregation above 59%, added: ADP 20 µM	reference: patients	high residual platelet reactivity	55%
CC(C)NCCCn1c(Sc2cc3c(cc2I)OCO3)nc2c(N)ncnc21	–	TUNEL	OCI-Ly7 xenograft, SCID mouse	75 mg/kg/day	–	apoptotic cells	17%
CCCCCCCCCCCCCCCC(=O)NCCCC[C@H](N)C(=O)N[C@@H](CC(=O)O)C(=O)N[C@H](C(=O)N[C@@H](Cc1c[nH]cn1)C(=O)N[C@@H](Cc1ccccc1)C(=O)N[C@@H](CCCNC(=N)N)C(=O)N[C@H](C(=O)N[C@@H](Cc1ccccc1)C(=O)N[C@@H](CCCNC(=N)N)C(=O)N[C@@H](CO)C(=O)N[C@@H](Cc1c[nH]cn1)C(=O)N[C@@H](CO)C(=O)N[C@@H](CC(=O)O)C(=O)N[C@@H](Cc1ccc(O)cc1)C(=O)N[C@@H](CCCNC(=N)N)C(=O)N[C@@H](CCCNC(=N)N)C(=O)N[C@H](C(=O)O)[C@@H](C)CC)[C@@H](C)O)[C@@H](C)O	–	immunohistochemistry, item: F4/80, CD3	C57BL/6J mice, MCD diet	1.2 nmol/g, 3 weeks	reference: vehicle	hepatic macrophage and T cells	decreased
CC/C=C\C/C=C\C/C=C\C/C=C\C/C=C\CCCCOC(CC)C(=O)O (stereo not shown)	–	–	APOE*3Leiden.CETP mice, high-fat diet	dose not given, 6 weeks, after 20 weeks diet	reference: control	hepatic triglycerides change	-48%
Cc1cc(=O)[nH]c2ccc(OCCCC(=O)N3CCCCC3)cc12	–	–	rat, isolated spontaneously beating atria	100 µM	reference: baseline	contraction force increase	35 ± 5%
Brc1ccc(Nc2nc(NN=Cc3c[nH]c4ccccc34)nc(N3CCOCC3)n2)cc1	–	western blot	mouse A549 xenograft, tumour tissue	intraperitoneal, 70 mg/kg single dose	–	LC3-II level	increased
O=c1c(-c2ccccc2)c[nH]n1-c1ccccn1	–	–	mouse	dose not given	–	hematocrit and reticulocytes	inactive

Structure (SMILES)	target or system	assay	test system	setting	how to read	endpoint	result
COc1ccc(C2CC(c3ccc(C)cc3)=Nc3ccccc3S2)cc1OC (stereo not shown)	–	–	Wistar rat, STZ-induced diabetes	oral, 10 mg/kg once daily, day 21	–	body weight	179 ± 4.16 g
CN(C)CCSC(=S)N1CCN(C(=O)/C=C/c2coc3ccc(F)cc3c2=O)CC1	tomato spotted wilt virus	viral infection, half-leaf method	Nicotiana glutinosa	500 µg/mL	–	inactivation effect	69.5 ± 5.6%
Cc1nc(C)c(C=[N+]([O-])C(C)(C)C)nc1C	–	Western blot, item: PGC-1α	mouse, MPTP model, substantia nigra cytosol	10 mg/kg	–	protein level increase	27.1%
CN(C)C(=O)c1ccnc(N2Cc3cn(Cc4ccc(F)cc4F)nc3C2)n1	–	paired-pulse ratio	hippocampal Schaffer collaterals, mouse	concentration not given, interval 100 ms, unit not given	reference: vehicle	effect size d	1.79
CN1Cc2c(Cl)cc(Cl)cc2C(c2ccc(S(=O)(=O)NCCOCCOCCOCCNC(=O)C(O)C(O)C(=O)NCCOCCOCCOCCNS(=O)(=O)c3ccc(C4CN(C)Cc5c(Cl)cc(Cl)cc54)cc3)cc2)C1 (stereo not shown)	–	–	Sprague Dawley rats	oral, 3 mg/kg, 16 h	higher = more watery	stool form score	3
CCn1cnc(C[C@H](NC(=O)c2nccnc2N)C(=O)N2CCC[C@H]2C(N)=O)c1	–	–	Swiss albino mice	iv, 10 µmol/kg, added: pentobarbital 50 mg/kg ip	reference: control	sleeping time reduction	49.8%
CC(C)[C@H](NC(=O)CN)C(=O)N[C@@H](CCCCN)C(=O)NCC(=O)N[C@@H](CC(=O)O)C(=O)N[C@@H](CCCCN)C(=O)NCC(=O)N[C@@H](CC(N)=O)C(=O)N1CCC[C@H]1C(=O)NCC(=O)N[C@@H](Cc1c[nH]c2ccccc12)C(=O)N1CCC[C@H]1C(=O)NCC(=O)N[C@@H](C)C(=O)N1CCC[C@H]1C(=O)O	–	–	bovine aortic endothelial cells, bovine	100 µg/mL coating, peptide-coated plates	–	spreading cells	0%
Cc1cc2c(cc1C1(c3ncc(C(=O)O)cn3)CC1)C(C)(C)CCC2(C)C	–	RNA sequencing, item: Rbp1	rat, brain	dose not given, 24 h	reference: vehicle	log2 fold change	-0.36
CC[C@H]1[C@@H](O)[C@@H]2[C@H](CC[C@]3(C)[C@@H]([C@H](C)CCOS(=O)(=O)[O-])CC[C@@H]23)[C@@]2(C)CC[C@@H](O)C[C@@H]12.[Na+]	–	EchoMRI	ob/ob NASH mouse model	oral, 3 mg/kg once daily, before treatment, baseline of 8 week study	–	whole-body lean mass	14.6 ± 0.3 g
CN(C)c1ccc2c(-c3cc(C(=O)N4CCN(CCCOc5ccc6nccc(C(=O)NCC(=O)N7CC(F)(F)C[C@H]7C#N)c6c5)CC4)ccc3C(=O)[O-])c3ccc(=[N+](C)C)cc-3oc2c1	–	flow cytometry	mouse B16-F10 tumour, tumour	dose not given	–	macrophages among labelled immune cells	67%
CC(C)c1cnc(-c2cc(Cl)ccc2F)cc1Nc1ccncc1C(=O)NC(CO)CO	–	item: pSMAD2	MC-38 tumour-bearing mouse, tumour	30 mg/kg, 0 to 8 h average	reference: vehicle	inhibition	56%
Cc1c(C)c(C)[c-](C)c1C.O=C1c2cccc[n+]2[Ir]([Cl])[N]1CCCCCCCCCC[P+](c1ccccc1)(c1ccccc1)c1ccccc1.[Br-]	–	4-hydroxynonenal reduction	PBS/DMSO	24 h, 37 °C, 1 mol% catalyst, added: excess sodium formate	–	yield	85%
COc1cc2c(cc1OC)C(c1ccc(F)cc1F)N(CCCOc1ccc(CCC(=O)O)cc1)CC2 (stereo not shown)	–	item: triglyceride, total cholesterol, free fatty acids	diet-induced obese C57BL/6J mice	oral, 50 mg/kg, 38 days	reference: vehicle	hepatic lipid levels	decreased
C=CC(=O)N1C[C@H](C)N(c2nc(OC[C@@]34CCCN3C[C@H](F)C4)nc3c(F)c(-c4ccc(F)c5sc(N)c(C#N)c45)c(C(F)(F)F)cc23)C[C@H]1C	–	item: phospho-ERK	mouse MIA PaCa-2 Matrigel plug	30 mg/kg single dose, 48 h	–	inhibition	57%
CCCSC(=S)N1CCN(C(=O)/C=C/c2coc3ccccc3c2=O)CC1	tomato spotted wilt virus	virus inactivation, half-leaf method	Nicotiana glutinosa	tested 31.25 to 500 µg/mL	–	EC50	595 ± 13.9 µg/mL (≈ 1480 µM)
COC(=O)[C@H](CSSC(C)(C)[C@H](NC(=O)[C@H](CCC(=O)NC[C@H](O)[C@@H](O)[C@H](O)[C@H](O)CO)NC(=O)[C@H](CCC(=O)O)NC(=O)[C@H](CCC(=O)NC[C@H](O)[C@@H](O)[C@H](O)[C@H](O)CO)NC(=O)[C@H](CCC(=O)O)NC(=O)[C@H](CCC(=O)NC[C@H](O)[C@@H](O)[C@H](O)[C@H](O)CO)NC(=O)CC[C@H](NC(=O)c1ccc(NCc2cnc3nc(N)[nH]c(=O)c3n2)cc1)C(=O)O)C(=O)O)NC(=O)CC[C@H](NC(=O)c1ccc(NCc2cnc3nc(N)nc(N)c3n2)cc1)C(=O)O	–	item: cartilage loss	Lewis rat, adjuvant-induced arthritis	500 nmol/kg twice weekly × 2	direction not given	histological score decrease	65%
CCOC(=O)c1cc2c(N)c(C(=O)OC)sc2nc1C	–	–	Sprague-Dawley rats	subcutaneous, 25, 50, 100 mg/kg	reference: vehicle	urinary urea concentration	decreased
CCOP(=O)(CC(=O)Nc1ccc(S(=O)(=O)N(CC(N)=O)c2ccc(N(CC(N)=O)S(=O)(=O)c3ccc(OC)cc3)c3ccccc23)cc1)OCC	–	Western blot	APP/PS1 mice, hippocampus and frontal cortex	40 mg/kg	reference: untreated APP/PS1 mice	HO-1 protein level	increased
CCCOC(=O)Cc1c(C)n(C(=O)c2ccc(Cl)cc2)c2ccc(OC)cc12	–	hot plate test	BALB/c mice	100 mg/kg, 90 min	–	latency of nociceptive response	15.7 ± 1.54 s
CC(=O)[C@]12NC(C)(C)C[C@@]1(C)C(=O)C1=C2c2c(c3c4n2C(C)(C)CC2=C4[C@@]4(CC(C)(C)N[C@@](C)(C4)C2=O)CC3(C)C)C(=O)C(C)(C)N1 (racemic)	–	acetic acid-induced writhing, writhing count	mouse	i.p., 1 mg/kg, 30 min	–	inhibition	83.7 ± 1.7%
